# Measured values pooled from the literature.
# Protocols differ between the studies behind these lines. ± marks the error that the study gave.
Structure (SMILES),target or system,assay,system,conditions,quantity,value
COc1c(CCC[P+](c2ccccc2)(c2ccccc2)c2ccccc2)cc2c(c1OC)OCO2.[I-],Malme-3M,SRB,,,GI50,-6.22 log M
CC(C)N1CCC(NC2CCN(c3cccc(-c4cc5cc(F)ccc5[nH]4)c3)CC2)CC1,NCI/ADR-RES,,,,GI50,1690 nM
COc1cc(CCC[P+](c2ccccc2)(c2ccccc2)c2ccccc2)c(OC)c2c1OCO2.[I-],OVCAR-4,SRB,,,GI50,-5.97 log M
CN[C@@H]1C[C@H]2O[C@@](C)([C@@H]1OC)n1c3ccccc3c3c4c(c5c6ccccc6n2c5c31)C(=O)NC4,U2OS overexpressing DDR1 G707A,cell growth,,,GI50,9 nM
Cc1cc(=O)oc2cc(OCCCC[Se]C#N)ccc12,"WiDr, multidrug-resistant",sulforhodamine B,,,GI50,1400 ± 300 nM
C[C@]12CC[C@@H]3c4ccc(O)cc4C[C@@H](CCCCCCCCC[S+]([O-])CCCC(F)(F)C(F)(F)F)[C@H]3[C@@H]1CC[C@@H]2O (stereo partly drawn),human coronavirus OC43,virus-induced cell killing,MRC-5,screen,maximum inhibition,2.18%
C[C@]12CC[C@H](n3ccnc3)CC1=CC[C@@H]1[C@@H]2CC[C@]2(C)C(n3cnc4ccccc43)=CC[C@@H]12,C4-2B,"cell growth, MTT",,,GI50,300 ± 160 nM
CN1CCN(C2(CNC3CCN(c4cccc(-c5cc6cc(F)ccc6[nH]5)c4)CC3)CCC2)CC1,OVCAR-4,,,,GI50,1870 nM
C[C@]12CC[C@H](O)CC1=CC[C@@H]1[C@@H]2CC[C@]2(C)C(n3cnc4ccccc43)=CC[C@@H]12,C4-2B,"cell growth, MTT",,,GI50,210 ± 120 nM
Nc1ncc(-c2nc(N3CCOCC3)nc(N3CCOCC3)n2)c(C(F)F)n1,COLO 205,,,72 h,GI50,310 nM
COc1c(C)cnc(Cn2cnc3c(Cl)nc(N)nc32)c1C,human coronavirus OC43,virus-induced cell killing,MRC-5,screen,maximum inhibition,5.79%
N#C[Se]CCCCOc1ccc2c(-c3ccccc3)cc(=O)oc2c1,"WiDr, multidrug-resistant",sulforhodamine B,,,GI50,25000 ± 3000 nM

# Excerpt of the above:
Structure (SMILES),target or system,assay,system,conditions,quantity,value
Nc1ncc(-c2nc(N3CCOCC3)nc(N3CCOCC3)n2)c(C(F)F)n1,COLO 205,,,72 h,GI50,310 nM
COc1c(C)cnc(Cn2cnc3c(Cl)nc(N)nc32)c1C,human coronavirus OC43,virus-induced cell killing,MRC-5,screen,maximum inhibition,5.79%
